# Measurements collected from several papers.
# Each numbered part is a random draw from the data of one study; scales do not carry over between parts.

# Block 1
# Target: Interferon regulatory factor 7, full length, phosphomimetic (IRF7, Homo sapiens, UniProt Q92985, residues 1-503, S471D/S472D/S475D/S476D/S477D/S483D/S484D/S487D)
# Technique: protein-binding microarray
# Form: double-stranded DNA, one strand shown
# Matrix: in vitro
# Tested at: 2200 nM top
# Notes: 60-bp whole probe
# Added: salmon DNA 0.4 mg/ml
# Baseline: random background probes
# Reading: higher = stronger binding
# Residues (chain): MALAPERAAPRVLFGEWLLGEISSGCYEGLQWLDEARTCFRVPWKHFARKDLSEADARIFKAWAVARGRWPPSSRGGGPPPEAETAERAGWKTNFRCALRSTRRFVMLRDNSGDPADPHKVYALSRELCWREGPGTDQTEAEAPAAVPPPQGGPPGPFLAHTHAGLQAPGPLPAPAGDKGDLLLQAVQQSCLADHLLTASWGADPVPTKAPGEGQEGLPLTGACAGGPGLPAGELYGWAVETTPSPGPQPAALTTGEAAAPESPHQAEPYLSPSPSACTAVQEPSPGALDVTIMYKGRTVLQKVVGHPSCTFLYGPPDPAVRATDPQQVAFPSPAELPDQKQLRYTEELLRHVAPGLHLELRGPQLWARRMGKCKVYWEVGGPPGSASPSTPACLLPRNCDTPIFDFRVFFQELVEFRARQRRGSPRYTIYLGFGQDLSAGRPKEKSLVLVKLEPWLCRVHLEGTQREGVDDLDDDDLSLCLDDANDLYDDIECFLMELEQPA
Strand,fitted relative affinity
GCCTAGCACGACGGTATTGGGTATCGGGACGTGCTAGTCTTGATTCGCTTGACGCTGCTG,-0.253 z-score
GCCTAGCACGACGATATCGGGTTTCGACACGTGCTAGTCTTGATTCGCTTGACGCTGCTG,1.38 z-score
GCCTAGCACGACGCTTTCGGTTTCGGGACGTGCTAGGTCTTGATTCGCTTGACGCTGCTG,15.3 z-score
GCCTAGCACTTAGGACTGGGATATCGGTTAGTGCTAGTCTTGATTCGCTTGACGCTGCTG,-0.232 z-score

# Block 2
# Target: RING finger protein unkempt homolog, zinc fingers 1-6, GST-SBP tag (UNK, Homo sapiens, UniProt Q9C0B0, residues 30-357)
# Chain of UniProt Q9C0B0 (30-357, looked up): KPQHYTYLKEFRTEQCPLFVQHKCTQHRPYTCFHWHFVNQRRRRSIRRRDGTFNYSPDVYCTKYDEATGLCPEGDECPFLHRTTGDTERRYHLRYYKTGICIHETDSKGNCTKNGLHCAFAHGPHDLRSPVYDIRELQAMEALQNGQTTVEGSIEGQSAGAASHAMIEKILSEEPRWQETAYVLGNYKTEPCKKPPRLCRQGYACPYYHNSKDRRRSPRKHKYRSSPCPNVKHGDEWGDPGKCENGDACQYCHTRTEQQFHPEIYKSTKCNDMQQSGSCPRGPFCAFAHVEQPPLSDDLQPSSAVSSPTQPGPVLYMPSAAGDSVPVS
# Technique: RNA Bind-n-Seq
# Form: RNA
# Matrix: in vitro
# Tested at: not given
# Notes: RNA with constant flanks, human and mouse sites, ends assumed
# Baseline: input RNA pool
# Reading: higher = stronger binding
Strand,bound/input enrichment [ratio]
GGGAGUUCUACAGUCCGACGAUCCCACAAGCAGAGGAAGCGUUAGCGAAGAGGAGAGGAAGGAACAGUCCAAACGGGAACCUCAUUAGGAUGCUUGUUCUUUUCUUUCUGGAAAGUGAGUUACAUGAACAUGCAGCCUACUUGCAACAGAGGAUUGAGCAUCA,0.23
GGGAGUUCUACAGUCCGACGAUCGGGGCCGGCGAGGAGGCGCGGACGGCGGGGCGCAGGCUGCUUCCCUGUUGCACCUUUGAUAUCGUUUCCUAGACUCCGUUCCAUGAUUUAAUUUGGAAUUCUGAGAUGAAGAUGGAGGAGCAACAGAGGAUUGAGCAUCA,0.244
GGGAGUUCUACAGUCCGACGAUCAAAAGGAAAGAGCCAAAUAAAAGCAUCAAGCAUUGCACAGUUCUCUCCAAUAACAUAGAUCAUCUCUUACUGAAUUUAACACUGUCUGAUAUCAUGGUCUCCCUGGCAAAUGCGUCAACUCAACAGAGGAUUGAGCAUCA,0.13

# Block 3
# Target: Histone acetyltransferase KAT6A, both winged helices, GST fusion (KAT6A, Homo sapiens, UniProt Q92794, residues 1-181)
# Technique: protein binding microarray
# Form: double-stranded DNA, one strand shown
# Matrix: in vitro
# Tested at: not given
# Notes: 8-mer, flanks averaged, mean of 2 arrays, mostly near background
# Baseline: not given
# Reading: higher = stronger binding
# Target sequence (chain): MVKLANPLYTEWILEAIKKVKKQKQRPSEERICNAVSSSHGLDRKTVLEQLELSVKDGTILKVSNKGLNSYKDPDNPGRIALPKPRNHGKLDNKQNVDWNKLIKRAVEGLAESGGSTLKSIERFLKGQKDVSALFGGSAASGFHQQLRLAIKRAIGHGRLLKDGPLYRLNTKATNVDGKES
Strand,E-score
ACGTGGCA,-0.149
ATCACTCC,-0.107
CGTCCACA,0.0654

# Single results of other studies
Molecule,target,assay,system,conditions,how to read,endpoint,value
"PhoQ, residues 284 288 289 292 302 303 AANNSF","PhoP, residues 12 14 15 18 19 LWHVM (Escherichia coli, UniProt P23836)","Sort-seq, refers to: YFP reporter",E. coli,"PhoQ-PhoP variant library, added: 10 µM Mg2+","baseline: high Mg2+ state, higher = stronger signaling",fold induction,13.2

# Repeated from above (block 3):
Strand,E-score
CGTCCACA,0.0654
